Experimental data collected from several papers.
Every numbered part comes from another study and shows a few of its results, in no order.

Set 1 — technique: protein-binding microarray; molecule type: double-stranded DNA, one strand shown; matrix: in vitro; concentration: 2200 nM top; notes: 60-bp whole probe; together with: salmon DNA 0.4 mg/ml; baseline: random background probes; reading: higher = stronger binding; measurement: fitted relative affinity; shared flanks, not repeated: GCCTAGCAC … GTCTTGATTCGCTTGACGCTGCTG
Target: Interferon regulatory factor 7, full length, phosphomimetic (IRF7, Homo sapiens, UniProt Q92985, residues 1-503, S471D/S472D/S475D/S476D/S477D/S483D/S484D/S487D)
Target sequence (chain): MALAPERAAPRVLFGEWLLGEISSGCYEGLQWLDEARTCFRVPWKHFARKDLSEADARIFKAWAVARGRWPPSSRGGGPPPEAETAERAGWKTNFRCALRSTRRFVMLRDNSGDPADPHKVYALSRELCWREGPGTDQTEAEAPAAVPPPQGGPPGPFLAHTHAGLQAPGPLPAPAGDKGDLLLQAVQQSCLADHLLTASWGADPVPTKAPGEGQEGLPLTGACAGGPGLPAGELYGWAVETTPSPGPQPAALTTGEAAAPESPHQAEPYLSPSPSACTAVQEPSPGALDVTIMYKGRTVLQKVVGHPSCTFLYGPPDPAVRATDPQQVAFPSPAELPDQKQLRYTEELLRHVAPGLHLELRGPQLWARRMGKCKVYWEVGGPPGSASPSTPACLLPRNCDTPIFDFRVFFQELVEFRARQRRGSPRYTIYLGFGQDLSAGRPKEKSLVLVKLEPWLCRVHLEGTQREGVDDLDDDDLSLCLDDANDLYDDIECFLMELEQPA
TGCATCGTAAGCAAAAATGAGTGCTAG: -0.3 z-score
GACGGTATCGACATTGGGGACGTGCTA: -0.13 z-score
TCAACTTTCACTTCTCCACTGTGCTAG: 9.24 z-score
GACGGTTCCGGCTTCGGGACGTGCTAG: 0.846 z-score
GACGATATCGGTCTCGGGACGTGCTAG: 0.158 z-score

Set 2 — technique: protein-binding microarray; molecule type: double-stranded DNA, one strand shown; matrix: in vitro; concentration: not given; reading: higher = stronger binding; measurement: E-score
Target: Protein max, full length (MAX, Homo sapiens, UniProt P61244-2, residues 1-151)
Notes: k-mer, scored over probes, only values ≥0.25
TCGTGGAA: 0.304
ACGTGAAC: 0.332
ACGCCACG: 0.408
AACCCGTG: 0.284
CGTGCACC: 0.388

Set 3 — technique: protein binding microarray; molecule type: double-stranded DNA, one strand shown; matrix: in vitro; concentration: not given; baseline: not given; reading: higher = stronger binding; measurement: E-score
Target: Histone acetyltransferase KAT6A, winged helix 1, GST fusion (KAT6A, Homo sapiens, UniProt Q92794, residues 1-85)
Notes: 8-mer, flanks averaged, mean of 2 arrays, mostly near background
Residues (chain): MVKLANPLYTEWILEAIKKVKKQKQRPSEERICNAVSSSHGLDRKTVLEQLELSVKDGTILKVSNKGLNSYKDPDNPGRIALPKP
CGTCTGCA: 0.00825
ACATCTCA: -0.0707
AGACCTAA: -0.0804
CCCGCCTC: 0.3

Further values, each from its own experiment
PhoQ, residues 284 288 289 292 302 303 SIHMAM  fold induction (PhoP, residues 12 14 15 18 19 STWGI (Escherichia coli, UniProt P23836); Sort-seq, item: YFP reporter; E. coli; PhoQ-PhoP variant library, together with: 10 µM Mg2+; baseline: high Mg2+ state, higher = stronger signaling): 2.79
